Assay results gathered from unrelated publications.
Parts stem from different laboratories: compare values within a part only. Substitutions count along the parent as printed.

Sample 1 — read-out: enzyme activity; action: inhibitor; concentration: 0.5 µM; reference: control
Target: SRSF protein kinase 1 (SRPK1, Homo sapiens, UniProt Q96SB4)
UniProt Q96SB4, sequence (whole entry, looked up): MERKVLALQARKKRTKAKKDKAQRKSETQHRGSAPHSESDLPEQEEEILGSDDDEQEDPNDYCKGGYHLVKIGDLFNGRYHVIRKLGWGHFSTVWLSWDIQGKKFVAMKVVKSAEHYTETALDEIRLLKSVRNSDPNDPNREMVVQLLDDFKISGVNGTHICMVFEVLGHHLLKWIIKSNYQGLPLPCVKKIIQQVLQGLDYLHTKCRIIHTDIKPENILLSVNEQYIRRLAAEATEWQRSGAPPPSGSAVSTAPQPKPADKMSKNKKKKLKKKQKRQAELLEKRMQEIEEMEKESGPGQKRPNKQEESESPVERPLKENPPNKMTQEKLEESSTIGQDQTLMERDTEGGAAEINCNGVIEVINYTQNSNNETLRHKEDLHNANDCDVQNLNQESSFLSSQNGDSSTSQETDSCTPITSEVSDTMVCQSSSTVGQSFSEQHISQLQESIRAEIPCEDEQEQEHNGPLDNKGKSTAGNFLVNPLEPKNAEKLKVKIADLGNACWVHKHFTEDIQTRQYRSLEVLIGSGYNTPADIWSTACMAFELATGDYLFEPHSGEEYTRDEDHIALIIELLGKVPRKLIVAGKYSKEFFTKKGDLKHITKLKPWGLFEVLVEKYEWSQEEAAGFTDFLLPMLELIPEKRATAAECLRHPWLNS
| SMILES | remaining activity [%] |
| --- | --- |
| COc1cc2nccc(Oc3ccc(NC(=S)NC(=O)c4ccccc4C)cc3)c2cc1OC | 98 |
| N#CC(C#N)=C(N)/C(C#N)=C/c1ccc(O)cc1 | 100 |
| COc1cc2ncnc(Nc3ccc(Oc4ccccc4)cc3)c2cc1OC | 104 |
| O=C(Nc1cccc(Nc2cc(Nc3cccc(C(F)(F)F)c3)ncn2)c1)C1CC1 | 86.4 |
| O=C(O)c1ccc2c3c1cccc3c(=O)n1c3ccccc3nc21 | 96.1 |
| Cn1sc(=O)n(Cc2ccccc2)c1=O | 89.8 |
| Cc1cccc(-c2[nH]c(C(C)(C)C)nc2-c2ccc3c(c2)OCO3)n1 | 96.5 |
| Cc1nc(-c2ccccc2)c(-c2ccncc2)o1 | 101 |
| Cc1ccc(Nc2nccc(N(C)c3ccc4c(C)n(C)nc4c3)n2)cc1S(N)(=O)=O | 100 |
| OCC(O)CCON=C1C(c2c(O)[nH]c3ccccc23)=Nc2ccccc21 (centres unmarked) | 71.3 |
| CNC(=O)c1cc(Oc2ccc(NC(=O)Nc3ccc(Cl)c(C(F)(F)F)c3)cc2)ccn1 | 98.6 |
| Nc1[nH]nc2nc3ccccc3nc12 | 101 |
| CO[C@H]1C[C@@H]2CC[C@@H](C)[C@@](O)(O2)C(=O)C(=O)N2CCCC[C@H]2C(=O)O[C@H]([C@H](C)C[C@@H]2CC[C@@H](O)[C@H](OC)C2)CC(=O)[C@H](C)/C=C(\C)[C@@H](O)[C@@H](OC)C(=O)[C@H](C)C[C@H](C)/C=C/C=C/C=C/1C | 108 |
| Cn1c2ccccc2c2c3c(c4c5ccccc5n(CCC#N)c4c21)CNC3=O | 98.3 |
| COc1ccc(C(=O)Nc2sc3c(c2C(N)=O)CCCC3)cc1OC | 82.6 |

Sample 2 — method: DHFR PCA, dose-response; matrix: yeast; setting: Hill fit, mean, not affinity; together with: (+)-ABA, dose series; direction: lower = more sensitive
Target: ABI1, truncated, D143A, DHFR fusion (Arabidopsis thaliana, UniProt P49597)
Starting sequence: PYL1, truncated, DHFR fusion (Arabidopsis thaliana, UniProt Q8VZS8); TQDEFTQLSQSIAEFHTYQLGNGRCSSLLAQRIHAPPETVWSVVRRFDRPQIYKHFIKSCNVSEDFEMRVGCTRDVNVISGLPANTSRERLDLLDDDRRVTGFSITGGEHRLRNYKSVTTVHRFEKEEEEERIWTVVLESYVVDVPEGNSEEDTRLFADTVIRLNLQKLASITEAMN
| Change | ABA EC50 [µM] |
| --- | --- |
| T73W | 6.38 |
| I79L | 30.8 |
| L20A | 1.8 |
| V43L | 4.65 |
| T173E | 652 |
| E64M | 3.97 |
| Q31F | 106 |
| T106K | 25.7 |

Sample 3 — read-out: binding; method: radioligand binding; concentration: 10 µM
Target: Histamine H2 receptor (HRH2, Homo sapiens, UniProt P25021)
UniProt P25021, sequence (whole entry, looked up): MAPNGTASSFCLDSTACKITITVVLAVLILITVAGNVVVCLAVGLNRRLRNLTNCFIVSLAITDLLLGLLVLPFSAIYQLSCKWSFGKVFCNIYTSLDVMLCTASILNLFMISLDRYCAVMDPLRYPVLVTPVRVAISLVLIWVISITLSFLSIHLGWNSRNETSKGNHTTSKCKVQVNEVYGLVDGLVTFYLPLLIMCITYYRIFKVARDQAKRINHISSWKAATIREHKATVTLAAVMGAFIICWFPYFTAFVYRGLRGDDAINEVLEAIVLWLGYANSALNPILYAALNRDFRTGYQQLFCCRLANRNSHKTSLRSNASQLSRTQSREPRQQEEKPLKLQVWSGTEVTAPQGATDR
| Compound | inhibition |
| --- | --- |
| Cc1nc(C2CCN(C(=O)c3ccc(OC(F)(F)F)cc3N)CC2)c2ncc(N3CCN(C)CC3)cc2n1 | 23.6% |
| O=C(Nc1cnc(Oc2ccc(F)cc2)nc1)N1CCc2ncccc2[C@@H]1c1ccc(F)cc1 | 2.75% |
| O[C@]1(C(F)(F)F)CCCC[C@H]1Nc1ccc(F)cc1 | -1.07% |
| O=C(Nc1cccnn1)N1CCC(=Cc2cccc(Oc3ccc(C(F)(F)F)cn3)c2)CC1 | 17.3% |
| CC(=O)c1c(NS(C)(=O)=O)c2cc(-c3ccc(Cl)cc3)c(-c3ccc(Cl)cc3Cl)nc2n(C)c1=O | 13.8% |
| CCOC(=O)c1cc2cc(-c3cc(C(=O)NCc4ccc(C(=O)O)cc4)nn3C)ccc2[nH]1 | -14.4% |
| Cc1nc(N2CC[C@@H](O)C2)ncc1-c1cc(C(F)(F)F)cc2[nH]ncc12 | -8.45% |

Sample 4 — method: competition protein-binding microarray; form: double-stranded DNA, one strand shown; matrix: in vitro; concentration: 2 µM; together with: Cbf1 competitor, 0.05 µM; direction: higher = stronger binding
Target: Phosphate system positive regulatory protein PHO4, full length, GST-tagged (PHO4, Saccharomyces cerevisiae, UniProt P07270, residues 1-312)
Setting: whole 60-bp probe, lowest competitor level
Construct (chain): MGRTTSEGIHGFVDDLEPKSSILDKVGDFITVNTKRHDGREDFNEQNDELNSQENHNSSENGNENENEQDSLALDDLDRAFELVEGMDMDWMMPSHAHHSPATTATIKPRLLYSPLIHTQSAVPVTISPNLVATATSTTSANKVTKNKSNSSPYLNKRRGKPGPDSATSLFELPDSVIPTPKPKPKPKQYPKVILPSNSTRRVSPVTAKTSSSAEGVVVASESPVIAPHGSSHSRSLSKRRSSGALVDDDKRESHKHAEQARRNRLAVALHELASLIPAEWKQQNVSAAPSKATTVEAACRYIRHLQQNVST
| Sequence | fluorescence intensity |
| --- | --- |
| AAAAAATGTGAATTGCACATGCCCAGCGCGCTCGCAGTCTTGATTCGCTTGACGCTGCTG | 9210 a.u. |
| AACCTACATTCTATTCTCGTGATGGTTCTCGTAATTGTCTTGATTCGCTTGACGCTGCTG | 4970 a.u. |
| TAAAAACGATTTCACCACGTGACTCGTATTAGAAATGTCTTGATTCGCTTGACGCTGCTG | 15300 a.u. |
| TGTCGCTCTCCCAGCCACGCTCGAAGGACTTGCTGAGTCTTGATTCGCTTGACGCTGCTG | 4720 a.u. |
| TTTTTCTTCTTAAAGCACGTTAACCAGTAATCAAGGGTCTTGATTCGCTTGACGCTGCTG | 7970 a.u. |
| TTTCATAGCGGGCCAAGCGTGGGTAAAGTGCTGGACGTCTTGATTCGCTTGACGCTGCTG | 5600 a.u. |
| TTGTTTTCTTCTTCACACGTGAGATTTTCCGCCGGCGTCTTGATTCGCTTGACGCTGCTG | 12000 a.u. |
| CTTTCCCGATCTTTTCACGTGCCCTTAGCACATTTGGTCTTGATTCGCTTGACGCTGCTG | 13700 a.u. |

For quick reference, copied from above (sample 4):
| Sequence | fluorescence intensity |
| --- | --- |
| TGTCGCTCTCCCAGCCACGCTCGAAGGACTTGCTGAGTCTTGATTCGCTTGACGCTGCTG | 4720 a.u. |
| TAAAAACGATTTCACCACGTGACTCGTATTAGAAATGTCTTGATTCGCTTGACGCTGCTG | 15300 a.u. |
| TTTTTCTTCTTAAAGCACGTTAACCAGTAATCAAGGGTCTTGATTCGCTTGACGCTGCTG | 7970 a.u. |
| CTTTCCCGATCTTTTCACGTGCCCTTAGCACATTTGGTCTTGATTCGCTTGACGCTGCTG | 13700 a.u. |
